Assay results of several laboratories.
Lines come from different studies, so protocols differ.
Target: Fibroblast growth factor receptor 2 (FGFR2, Homo sapiens, UniProt P21802)
UniProt P21802, sequence (whole entry, looked up): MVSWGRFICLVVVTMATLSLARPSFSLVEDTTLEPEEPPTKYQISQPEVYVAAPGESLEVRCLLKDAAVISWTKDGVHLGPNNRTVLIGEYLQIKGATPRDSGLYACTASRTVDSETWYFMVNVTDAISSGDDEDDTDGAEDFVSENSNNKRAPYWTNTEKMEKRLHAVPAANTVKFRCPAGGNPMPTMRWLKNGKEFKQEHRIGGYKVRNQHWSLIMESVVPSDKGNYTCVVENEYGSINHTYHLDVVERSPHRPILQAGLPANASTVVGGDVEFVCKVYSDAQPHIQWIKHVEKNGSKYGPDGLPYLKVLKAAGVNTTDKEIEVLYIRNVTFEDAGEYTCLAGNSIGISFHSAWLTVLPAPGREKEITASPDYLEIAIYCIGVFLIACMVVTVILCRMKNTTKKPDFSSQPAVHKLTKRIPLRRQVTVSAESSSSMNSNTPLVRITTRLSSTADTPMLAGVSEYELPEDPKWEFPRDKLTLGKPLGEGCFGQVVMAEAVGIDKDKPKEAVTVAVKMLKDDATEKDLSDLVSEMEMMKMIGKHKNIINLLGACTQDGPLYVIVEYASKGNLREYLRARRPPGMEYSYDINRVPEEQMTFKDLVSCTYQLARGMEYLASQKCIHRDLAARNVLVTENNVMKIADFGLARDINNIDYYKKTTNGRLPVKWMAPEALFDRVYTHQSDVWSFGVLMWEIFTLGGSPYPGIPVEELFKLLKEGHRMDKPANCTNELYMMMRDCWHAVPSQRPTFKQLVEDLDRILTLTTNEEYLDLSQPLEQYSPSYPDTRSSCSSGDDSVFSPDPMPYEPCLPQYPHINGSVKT

`COc1ccc(NC(=O)Nc2ccc3c(c2)C(=O)N(C(C)CO)CC(C)C(CN(C)Cc2ccc4c(c2)OCO4)O3)cc1` (stereo not shown) has a remaining binding of 77% (binding, competition with immobilised ligand; 10 µM).
`Cc1nc2c(F)cc(-c3nc(Nc4ccc(CNC(=O)CCCCCCC(=O)NO)cc4)ncc3F)cc2n1C(C)C` gave an inhibition of 53% (enzyme activity, inhibitor; 1 µM).
The remaining binding of `CC(C)=CC1OC(C)(C)C2C=C3C(=O)C(Cl)=CC(O)C3C3C(O)C4OC4C(=O)C132` (stereo not shown) is reported as 70% (cell-free assay, competition with immobilised ligand; 10 µM).
`CN1CCN(Cc2ccc(NC(=O)c3cccc(C#Cc4cnc(N)c5ncccc45)c3)cc2C(F)(F)F)CC1` gave a remaining binding of 1.4% (cell-free assay, competition with immobilised ligand; 0.5 µM).
`COc1c(OCCCN2CCOCC2)ccc2c1N=C(NC(=O)c1cnc(N)nc1)N1CCN=C21` gave a remaining activity of 105% (kinase activity, inhibitor; 1 µM; baseline: untreated control).
`C=CC(=O)N1CCc2ccc(-n3c(=O)ccc4cnc5ccc(-c6cnn(C)c6)cc5c43)cc21` has a remaining binding of 92% (KINOMEscan; 1 µM; baseline: DMSO control).
The inhibition of `COc1ccc(C(=O)/C=C/c2ccccc2-c2c[nH]c3ccc(C#N)cc23)c(O)c1` is reported as -1% (enzyme activity, inhibitor; 20 µM).
`Nc1ncc2c(n1)-c1c([nH]c3ccc(C4=CCOCC4)cc13)CCC2` has a remaining binding of 100% (binding, competition with immobilised ligand; 1 µM).
`NC(=O)C[C@H]1CCc2sc3ncnc(O[C@H]4CC[C@H](N5CCOCC5)CC4)c3c21` gave an inhibition of -5% (enzyme activity, inhibitor; 10 µM).
For `O=C(Cc1ccc(OCc2ccccc2)cc1)NC1(C(=O)O)CCN(C(=O)c2ccc(-c3cccc(Cl)c3)cc2)CC1`, “activity vs control” read 100% (enzyme activity, inhibitor; 10 µM).
With `Cc1cccc(O[C@H]2CCC[C@@H](C(C)CNCc3ccncc3)C2)c1` (relative stereo) the inhibition was 3% (cell-free assay; 1 µM).
For `C=CC(=O)Nc1cccc(-c2cnc3[nH]cc(C(=O)NC(C)(C)C)c3n2)c1`, the inhibition was 40% (enzyme activity, inhibitor; 0.1 µM).
`CNC1C[S+]2CC[S+]3CC[S+](C1)[Ru-4]321([N]=C=S)[n]2c3ccc(OC)cc3c3c4c(c5cc(F)c[n+]1c5c32)C(=O)NC4=O` (stereo not shown) has a remaining binding of 82% (KinomeScan; 0.1 µM; baseline: untreated).
For `CN1CCN(c2ccc(Nc3ncc(Cl)c(Nc4ccccc4P(C)(C)=O)n3)cc2Br)CC1`, the inhibition was 82.2% (enzyme activity, inhibitor; 0.1 µM).
`O=C=[N][Ru-4]123([n]4c5ccc(O)cc5c5c6c(c7cc(F)c[n+]1c7c54)C(=O)NC6=O)[S+]1CC[S+]2CC[S+]3CC1` (stereo not shown) has a remaining activity of 118% (enzyme activity; 100 nM, human enzyme, added: 10 µM ATP; baseline: untreated).
`Cc1ccc(-c2c(/C=C(\C#N)C(=O)NC(C)C)n(CCCO)c3ncnc(N)c23)cc1` gave a remaining binding of 100% (cell-free assay, competition with immobilised ligand; 1 µM).
The remaining binding of `CNS(=O)(=O)Nc1nccc(Cc2c(C)c3ccc(Oc4ncccc4F)cc3oc2=O)c1F` is reported as 89% (cell-free assay, competition with immobilised ligand; 10 µM).
`CN1CCN(Cc2ccc(-c3ccc(CO[C@H]4CCC[C@@H]4NC(=O)c4cc(-c5cnn(C)c5)cnc4N)cc3)cc2)CC1` gave an inhibition of -8% (enzyme activity, inhibitor; 0.1 µM).
`C=CC(=O)N1CCCC(n2c(=O)c3ncccc3n(Cc3ccc(Oc4ccccc4)cc3)c2=O)C1` (stereo not shown) has a remaining binding of 100% (cell-free assay, competition with immobilised ligand; 1 µM).

Some of these lines once more:
For `O=C(Cc1ccc(OCc2ccccc2)cc1)NC1(C(=O)O)CCN(C(=O)c2ccc(-c3cccc(Cl)c3)cc2)CC1`, “activity vs control” read 100% (enzyme activity, inhibitor; 10 µM).
With `Cc1cccc(O[C@H]2CCC[C@@H](C(C)CNCc3ccncc3)C2)c1` (relative stereo) the inhibition was 3% (cell-free assay; 1 µM).
